Experimental data from different studies.
Protocols differ between the studies behind these lines. Values joined by “and” are separate records of one study, mostly repeats; a detail may differ. ± gives the spread as reported.

O=C(Nc1cccc(Sc2ccc3c(/C=C/c4ccccn4)n[nH]c3c2)c1)c1ccco1  GI50 (Ba/F3 TEL-VEGFR2; cell growth, CCK-8): 500 nM
COC(=O)c1cc(NC2=NC(=O)C(=Cc3ccc(N(C)C)cc3)S2)ccc1OC(C)=O  fold change (MCF7; refers to: GTF2H2C mRNA; 0.81 µM (IC50), 24 h; baseline: DMSO): 0.291
CCCC[C@H]1C(=O)N(C)[C@@H](CCCC)C(=O)N[C@@H](CCCCNC(=S)Nc2ccc(CN3CCN(CC(=O)O)CCN(CC(=O)O)CC3)cc2)C(=O)N[C@H](C(=O)NCC(N)=O)CSCC(=O)N[C@@H](Cc2ccc(O)cc2)C(=O)N(C)[C@@H](C)C(=O)N[C@@H](CC(N)=O)C(=O)N2CCC[C@H]2C(=O)N[C@@H](Cc2c[nH]cn2)C(=O)N[C@@H](CCC(=O)O)C(=O)N2C[C@H](O)C[C@H]2C(=O)N[C@@H](Cc2c[nH]c3ccccc23)C(=O)N[C@@H](CO)C(=O)N[C@@H](Cc2cn(CC(=O)O)c3ccccc23)C(=O)N1C [fluorine-18 labelled]  cell-bound activity (H2444; binding; concentration not given, 30 min, 4 °C; baseline: added activity): 1.12 ± 0.09%
COC(=O)c1cc(NC2=NC(=O)C(=Cc3ccc(C)cc3)S2)ccc1OC(C)=O  metabolite level (MCF7; GC-MS, refers to: D-Arabinose; 1 µM; baseline: DMSO): -0.24 fold change
CNS(=O)(=O)Nc1nccc(Cc2c(C)c3ccc(Oc4ncccc4F)cc3oc2=O)c1F  IC50 (NCI-H2172; cell viability; 7 days): > 1000 nM
CCC(=CCc1c(O)cc2c(c1O)C(=O)CC(c1ccc(O)cc1)O2)CC (centres unmarked)  cells in G0/G1 phase (HeLa; flow cytometry, PI staining; 12 µM, 48 h): 42.8%
Cn1ncc2cc(-c3cncc(Cl)c3N3CCC4(CCNC4=O)CC3)ccc21  log2 fold change (LS174T; gene expression, microarray, refers to: GBP2 mRNA; concentration not given, 4 h; baseline: untreated cells): 2
COCCCCCNc1nc(NCCCCCCN(C)C)c2cc(NC(=O)/C=C/CN(C)C)ccc2n1  viability (MCF7; CellTiter-Glo; 25 µM, 24 h, unit not given; baseline: DMSO-treated cells): 0.88 and 1
C/C(=N\Nc1ncnc2sc3c(c12)CCCC3)c1cc(O)ccc1O  cell proliferation (HCT-116 overexpressing RelB-G200L; CCK-8; concentration not given): decreased
CN1CCCNC(=O)c2cccc(c2)C(=O)NCCCN(C)CCCNc2cccc3c2C(=O)c2cccc(c2C3=O)NCCC1  log2 fold change (SAS; RNA-Seq, refers to: SLC10A3 mRNA; 1 µM, 6 h; baseline: untreated cells): -0.495
CCCCCCc1cccc([C@H](O)C[C@H](CO)NC(=O)CCCCCCCCCCBr)c1  ceramide level (HeLa; CERT activity, HPLC-MS/MS lipidomics, refers to: ceramide 24:1; 1 µM, 24 h, not cell-number normalised): 18200 pmol/sample and 19100 pmol/sample and 22400 pmol/sample
COc1cc(C(=O)N2CC[C@@H](O)[C@@H](N)C2)cc2nc(-c3cc4cccnc4n3CC3CC3)n(C)c12  inhibition (human neutrophils; protein citrullination, inhibitor, flow cytometry, refers to: citrullinated histone H3; 10 nM, added: ionomycin): 10.4% and 24.3% and 4.63% and 14.4%
Cc1ncsc1-c1ccc(C(C)NC(=O)C2CC(O)CN2C(=O)C(NC(=O)CCCCCCCCCCN2CCCC(Nc3ncc(Cl)c(Nc4ccccc4S(=O)(=O)C(C)C)n3)C2)C(C)(C)C)cc1 (centres unmarked)  log2 fold change (22Rv1; RNA-seq, refers to: ZEB1 mRNA; concentration not given; baseline: DMSO): -1.98
COc1ccccc1C(=O)NCC(=O)Nc1ccc2[nH]nc(/C=C/c3ccccn3)c2c1  GI50 (Ba/F3 TEL-VEGFR3; cell growth, CCK-8): 4500 nM
CC(C)c1ccc(N(C)c2ccc3c(c2)OCC[C@H]3CNc2cnccc2C(=O)O)cc1  IC50 (KYSE-150; cell growth or viability, MTS; 7 days): 5.3 nM
Cc1cnc(NC(=O)c2cccc([C@@H]3C[C@H]3NC3CCC3)c2)s1  relative growth (SET-2; cell growth, CellTiter-Glo; 10 µM, 7 d; baseline: vehicle): 107% and 80.1% and 88.5%
COc1cc(N2CCN(C(=O)C3CCCN3)CC2)ccc1Nc1ncc(Cl)c(Nc2ccccc2P(C)(C)=O)n1 (centres unmarked)  late apoptotic cells (NCI-H3122; annexin V/PI flow cytometry; 500 nM, 24 h, mean of replicates): 3.4%
CC(C)C[C@H](NC(=O)[C@@H]1CCCN1C(=O)[C@H](CCCCN)NC(=O)[C@@H](N)CO)C(=O)N1CCC[C@H]1C(=O)N[C@@H](CCC(=O)O)C(=O)N[C@H](C(=O)N[C@H](C(=O)N[C@@H](CC(=O)O)C(=O)N[C@@H](CCC(=O)O)C(=O)N[C@@H](Cc1ccc(O)cc1)C(=O)NCC(=O)NCCOCCOCCOCCOCCOCCOCCOCCOCCOCCOCCOCCOCCC(=O)N[C@@H](CCCCNC(=O)CC[C@H](C(=O)O)N1CCN(CC(=O)O)CCN(CC(=O)O)CC1)C(=O)N1CCN(CCCN(C)c2ccc3nccc(C(=O)NCC(=O)N4CC(F)(F)C[C@H]4C#N)c3c2)CC1)[C@@H](C)O)C(C)C  Kd (HT-1080 expressing hFAP; binding, flow cytometry; 4 °C, apparent): 18.8 nM
O=C(Nc1ccc(Cl)c(C(F)(F)F)c1)C1(C(=O)Nc2ccc3c(/C=C/c4ccccn4)n[nH]c3c2)CC1  GI50 (Ba/F3 TEL-VEGFR2; cell growth, CCK-8): 1500 nM
CCCC[C@H](N)C(=O)N[C@H]1CSCc2ccc(cc2)-c2ccc(cc2)CSC[C@@H](C(=O)N[C@H](C(N)=O)[C@@H](C)O)NC(=O)[C@H](CCCCN)NC(=O)[C@H](CCCCN)NC(=O)[C@H](CCCCN)NC(=O)[C@H](Cc2ccc(O)cc2)NC(=O)[C@H](CC(N)=O)NC(=O)[C@H](CC(C)C)NC1=O  inhibition (U2OS expressing KRAS G12D; KRAS G12D dimerisation; 50 µM): ~50%
CCCCCCCCN(CCC(=O)Nc1ccccc1)C(=O)c1ccc[nH]1  viability (progeroid mouse fibroblasts, Lmna G609G/G609G; MTT; 2 µM, 72 h; baseline: vehicle-treated wild type): 45 ± 6%
COC(=O)[C@@]1(C(C)C)C=C(C(=O)Nc2cccc(C(=O)Nc3ccc(Nc4nccc(-c5cccnc5)n4)c(C)c3)c2)C(=O)CC1  reporter activity (HEK293 AP1 reporter; AP1 reporter gene, inhibitor; 1 µM, 6 h, unit not given, added: PMA; baseline: PMA alone): 0.815
CCN(CC)CC(=O)Nc1cccc(-n2cc(-c3ccc4ccc(-c5cn(-c6cccc(NC(=O)CN(CC)CC)c6)nn5)cc4c3)nn2)c1  fold regulation (RCC4; PCR angiogenesis array, refers to: COL18A1; 5 x IC50, 2 h, normoxia; baseline: untreated): 1
CNC(NN=Cc1ccc([N+](=O)[O-])o1)=[S+][Au-][Cl]  apoptotic cells increase (CAKI-1; annexin V/PI flow cytometry; 15 µM (IC50), 72 h): 30%
[Cl-].[Cl-].[Ru+2].c1ccc(-c2ccccn2)nc1.c1ccc(-c2ccccn2)nc1.c1ccc2cc3nc4c5cccnc5c5ncccc5c4nc3cc2c1  TGI (SK-MEL-28; cell growth, SRB; red light 633 nm, normoxia): 199 nM
C=CC(=O)N1[C@H](c2ccc3c(c2)OCO3)c2[nH]c3ccccc3c2C[C@@H]1C(=O)NC1CC1  mean neuron degeneration (rat DRG neurons; 0.3704 µM, 48 h, added: vincristine 40 nM): 44.2%
CCn1nc(Cl)c2c1-c1cnc(N)c(c1)O[C@H](C)c1cc(F)ccc1-c1nn(C)cc1C2  Emax (KARPAS-299 (NPM1-ALK); cell viability): 80.5%
CCOc1cncc(-c2ccc(NC(=O)C3(c4ccnc(NS(=O)(=O)C5CC5)n4)CCOCC3)nc2)n1  IC50 (DMS-273; cell growth or viability, ATP luminescence; 72 h): 998 nM
Fc1ccc(Nc2nc(NC3CCCCC3)c3cc(C(F)(F)F)ccc3n2)cc1F  pIC50 (transfected HEK293 cells; β-arrestin2 recruitment, negative allosteric modulator, BRET; 30 min pre-incubation, β1AR ECL1/2 chimera, added: isoproterenol 1 µM): 6.4
